Results collected from several papers.
Every numbered part comes from another study and shows a few of its results, in no order. Values joined by “and” are separate records of one study, mostly repeats; a detail may differ.

Sample 1 — method: RNA Bind-n-Seq; molecule type: RNA; medium: in vitro; concentration: 20 nM; notes: 6-mer, flanks averaged, single round; with: 150 mM LiCl; relative to: input library; direction: higher = stronger binding
Target: TAR DNA-binding protein 43, full length, His tag (TARDBP, Homo sapiens, UniProt Q13148, residues 1-414)
Sequence	6-mer enrichment (R)
AUUGGC	0.939
AUAUGC	0.936
GUCAGU	0.98
AGACAU	0.838
AGGUGU	1.35
AAUGCC	0.904

Sample 2 — method: Spec-seq; molecule type: double-stranded DNA, one strand shown; medium: in vitro; concentration: not given; notes: whole probe, mean of replicates; relative to: not given; direction: lower = stronger binding; all sequences stand within: GAGTCGTCTCGTCAGCAC … CCGTAGAGCACTCAGGTC
Target: POU, POU domain (Salpingoeca helianthica)
Construct (chain): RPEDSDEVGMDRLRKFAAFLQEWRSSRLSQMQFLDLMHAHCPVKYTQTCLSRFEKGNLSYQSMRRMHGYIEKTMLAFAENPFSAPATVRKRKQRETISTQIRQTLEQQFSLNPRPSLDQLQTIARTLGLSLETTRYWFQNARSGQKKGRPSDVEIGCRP
Sequence	relative binding energy [ln ratio]
ATGCAGGT	1.28
TTGGTAAT	0.504
ATCCTTAT	0.784
ATGCAACG	1.28
ATAAGAAT	1.12
ATTCTCAT	1.26
ATGAGTAT	1.15
ATGCAGAG	1.28
ATTCTAAT	0.441

Sample 3 — method: protein-binding microarray; molecule type: double-stranded DNA, one strand shown; medium: in vitro; concentration: 250 nM; notes: 60-bp whole probe; with: salmon DNA 0.4 mg/ml; relative to: random background probes; direction: higher = stronger binding; all sequences stand within: GCCTAGCAC … GTCTTGATTCGCTTGACGCTGCTG
Target: Interferon regulatory factor 5, full length, phosphomimetic (IRF5, Homo sapiens, UniProt Q13568-2, residues 1-514, K96S/S451D/S453D/S456D/S462D)
Sequence	log fluorescence [z-score]
GACGGACCGGACTTTCGGGACGTGCTA	4.71
TTAGGTCTCTGTCTCGGTTAGTGCTAG	0.415
ATAGGACTGGGTATCGGTTAGTGCTAG	4.31
TCACCTCTGTTTTGAGCACTGTGCTAG	0.252
GACGATCTCAGAATCGAGACGTGCTAG	0.0823

Single results of other studies
Molecule	target	assay	system	setting	how to read	endpoint	value
PhoQ, residues 284 288 289 292 302 303 SCCLKL	PhoP, residues 12 14 15 18 19 LWHSL (Escherichia coli, UniProt P23836)	Sort-seq, refers to: YFP reporter	E. coli	PhoQ-PhoP variant library, with: 10 µM Mg2+	relative to: high Mg2+ state, higher = stronger signaling	fold induction	9.14 and 6.43

For quick reference, copied from above (sample 3):
Sequence	log fluorescence [z-score]
ATAGGACTGGGTATCGGTTAGTGCTAG	4.31
